# Measured values gathered from unrelated publications.
# Every numbered part comes from another study and shows a few of its results, in no order.
# Sequence of UniProt P16220 (whole entry, looked up): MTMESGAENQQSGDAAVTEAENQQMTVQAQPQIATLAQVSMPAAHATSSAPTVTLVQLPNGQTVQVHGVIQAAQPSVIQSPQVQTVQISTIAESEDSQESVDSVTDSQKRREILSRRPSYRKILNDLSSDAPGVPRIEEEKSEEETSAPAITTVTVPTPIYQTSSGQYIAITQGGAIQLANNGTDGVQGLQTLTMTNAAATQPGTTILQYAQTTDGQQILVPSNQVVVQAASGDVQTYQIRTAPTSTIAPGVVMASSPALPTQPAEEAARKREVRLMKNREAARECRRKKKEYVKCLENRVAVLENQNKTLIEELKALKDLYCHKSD

# Sample 1 — mode: inhibitor; tested at: 20 µM
# Target: Replicase polyprotein 1ab, nsp13 helicase (rep, Severe acute respiratory syndrome coronavirus 2, UniProt P0DTD1)
SMILES,inhibition
CCCCc1nn(-c2ccccc2C(F)(F)F)c(=O)n1Cc1ccc(-c2ccccc2S(=O)(=O)NC(=O)c2sccc2C)cc1,10.9%
CCOC(=O)c1ccc(N(C)c2csc(-c3ccccc3)n2)cc1,12.7%
C/C(=C\C(=O)OCCCCCCCCC(=O)O)C[C@@H]1OC[C@H](C[C@@H]2O[C@H]2[C@@H](C)[C@H](C)O)[C@@H](O)[C@H]1O,6.29%
COCCOc1ccc(N2CCN(CCn3ncc4c3nc(N)n3nc(-c5ccco5)nc43)CC2)cc1,1.51%
COc1ccc(S(=O)(=O)N2c3ccc(Cl)cc3[C@](O)(c3ccccc3Cl)[C@@H]2C(=O)N2CCC[C@H]2C(N)=O)cc1OC,2.14%
O=c1[nH]cc(F)c(=O)[nH]1,3.47%
O=c1ccc2ccccc2o1,-0.33%
Cc1cnc(C(=O)N[C@H]2CCCCC/C=C\[C@@H]3C[C@@]3(C(=O)NS(=O)(=O)C3CC3)NC(=O)[C@@H]3C[C@@H](Oc4nc5ccccc5c5ccccc45)CN3C2=O)cn1,6.3%
C/C(=N\NC(=O)[C@H]1C(=O)NC[C@@H]1c1ccccc1)c1cccc(Br)c1,7.54%
Nc1nc2c(ncn2[C@@H]2O[C@H](CO)[C@@H](O)[C@H]2O)c(=O)[nH]1,3.65%
COc1cc2ncnc(Nc3cccc(Br)c3)c2cc1OC,9.74%
NS(=O)(=O)c1ccc(NC(=O)Nc2ccc(F)cc2)cc1,3.69%
NC(=O)C[C@H](N)C(=O)O,6.17%
CCC(C)(CN(C)C)OC(=O)c1ccccc1 (stereo not shown),1.63%
COc1ccccc1S(=O)(=O)Nc1ccc2c(c1)CN(C)C(=O)N2,-3.74%
N#Cc1c[nH]c2c(C(=O)N3CCN(CCc4ccc(F)cc4)CC3)cccc12,6.2%
NC(=O)OCC(COC(N)=O)c1ccccc1,7%
Cc1cc(C(=O)Nc2cccc(C(=O)Nc3cccc(C(F)(F)F)c3)c2)on1,-0.04%
CN(C)CCCn1cc(C2=C(c3c[nH]c4ccccc34)C(=O)NC2=O)c2ccccc21,21.9%
O=C(O)CCCNC(=O)c1cccnc1,2.23%
CC(C)N1Cc2cc(S(C)(=O)=O)ccc2N(CCN2CC=C(c3c[nH]c4cc(F)ccc34)CC2)S1(=O)=O,5.99%
C[C@]1(COc2ccc(N3CCC(Oc4ccc(OC(F)(F)F)cc4)CC3)cc2)Cn2cc([N+](=O)[O-])nc2O1,-24%
O=C1OCCN1/N=C/c1ccc([N+](=O)[O-])o1,8.21%
CC(C)NCC(O)COc1ccc(COCCOC(C)C)cc1 (stereo not shown),2.59%
O=C1C=C2C=C[C@@H]3C[C@@]2(O1)[C@H]1CCCCN31,0.74%

# Sample 2 — target: Sox, HMG box (Pigoraptor chileana); method: Spec-seq; molecule type: double-stranded DNA, one strand shown; medium: in vitro; tested at: not given; notes: whole probe, mean of replicates; baseline: not given; direction: lower = stronger binding; shared flanks, not repeated: GAGTCGTCTCGTCAGCAC … CCGTAGAGCACTCAGGTC
# Target sequence (chain): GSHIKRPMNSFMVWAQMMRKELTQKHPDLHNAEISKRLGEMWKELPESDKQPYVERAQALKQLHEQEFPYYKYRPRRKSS
Oligonucleotide,relative binding energy
CAGGGTT,1.28 ln ratio
CATTCTA,-0.523 ln ratio
GCGAGTT,1.49 ln ratio
CATGAAC,0.178 ln ratio
CATCCCT,0.655 ln ratio
CATGCGG,0.598 ln ratio

# Sample 3 — observed: enzyme activity; mode: inhibitor; tested at: 20 µM
# Target: Replicase polyprotein 1ab, main protease (rep, Severe acute respiratory syndrome coronavirus 2, UniProt P0DTD1)
Compound,inhibition [%]
S=c1nn[nH]n1-c1ccccc1,78.4
CCc1ccc(/C=C/C(=O)Nc2ccc(C(C)=O)cc2)o1,-30.5
Sc1nnc(Nc2ccccc2)s1,97.3

# Sample 4 — method: protein binding microarray; molecule type: double-stranded DNA, one strand shown; medium: in vitro; tested at: not given; baseline: not given; direction: higher = stronger binding
# Target: Histone acetyltransferase KAT6A, winged helix 2, GST fusion (KAT6A, Homo sapiens, UniProt Q92794, residues 85-181)
# Notes: 8-mer, flanks averaged, mean of 2 arrays, mostly near background
# Construct (chain): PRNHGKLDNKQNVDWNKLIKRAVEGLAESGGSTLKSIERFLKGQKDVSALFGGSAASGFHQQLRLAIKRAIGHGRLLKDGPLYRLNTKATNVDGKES
Oligonucleotide,E-score
ACAACGAC,0.047
GAGCGTTA,-0.078
TGGGCAAA,0.0862
CTGAGTTA,-0.0536
CCATCCAG,0.072
TACCGCAA,0.175
ACGTGTGA,-0.152
AGCTACAG,-0.173

# Sample 5 — method: RNA Bind-n-Seq; molecule type: RNA; medium: in vitro; tested at: 20 nM; notes: 6-mer, flanks averaged, single round; added: 150 mM KCl; baseline: input library; direction: higher = stronger binding
# Target: TAR DNA-binding protein 43, full length, His tag (TARDBP, Homo sapiens, UniProt Q13148, residues 1-414)
Oligonucleotide,6-mer enrichment (R)
UGACCA,0.672
GUUGGC,1.21
UGAUAG,0.866
UUAUAA,0.746
UUUCCC,0.617
CAAUUA,0.638
AGACAG,0.953

# Single results of other studies
# KLF3 full length: Krueppel-like factor 3, full length (KLF3, Homo sapiens, UniProt P57682, residues 1-345)
# Sequence of UniProt P57682 (whole entry, looked up): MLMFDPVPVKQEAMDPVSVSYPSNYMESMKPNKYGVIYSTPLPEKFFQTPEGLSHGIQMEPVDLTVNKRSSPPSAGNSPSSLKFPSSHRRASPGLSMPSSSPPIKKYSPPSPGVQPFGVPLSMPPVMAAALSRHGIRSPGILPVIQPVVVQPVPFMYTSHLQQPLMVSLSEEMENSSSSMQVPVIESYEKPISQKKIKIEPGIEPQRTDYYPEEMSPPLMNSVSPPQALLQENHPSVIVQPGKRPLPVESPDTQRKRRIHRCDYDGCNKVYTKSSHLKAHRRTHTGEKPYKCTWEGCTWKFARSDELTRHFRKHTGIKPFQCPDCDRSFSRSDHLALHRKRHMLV
Molecule,target or system,assay,system,setting,scale,quantity,value
GAGGCCGACCACCGCCAGCCTCCTGGCTGGCGGTGGTCGGCCTCACACTC (5mC at 13),KLF3 full length,protein-binding microarray,"hairpin DNA, in vitro","not given, whole hairpin DNA, median over replicate spots","baseline: not given, higher = stronger binding",median fluorescence,8130 a.u.
Aprotinin,HEK-293T/ACE2,,,concentration not given,baseline: vehicle,nuclei number,93%
GAGGCCGACGACGTCGTGCCTCCTGGCACGACGTCGTCGGCCTCACACTC (5mC at 9 12 15 29 35),"Cyclic AMP-responsive element-binding protein 1, full length (CREB1, Homo sapiens, UniProt P16220, residues 1-327)",protein-binding microarray,"hairpin DNA, in vitro","not given, whole hairpin DNA, median over replicate spots","baseline: not given, higher = stronger binding",median fluorescence,3170 a.u.
Cc1cccc([C@H](C)c2cnc[nH]2)c1C,HEK-293T,,VSV pseudotyped with SARS-CoV-2 spike,"10 µM, 16 h",,pseudovirus infection,89.4%
CCACAGGTGGTGGCATGCCTTCCTAGGCATGCCACCACCTGTGGACACTC (5mC at 39),"Cellular tumor antigen p53, full length (TP53, Homo sapiens, UniProt P04637, residues 1-393)",protein-binding microarray,"hairpin DNA, in vitro","not given, whole hairpin DNA, median over replicate spots","baseline: not given, higher = stronger binding",median fluorescence,7230 a.u.
GAGGCCGACCCCGCCCAGCCTCCTGGCTGGGCGGGGTCGGCCTCACACTC,KLF3 full length,protein-binding microarray,"hairpin DNA, in vitro","not given, whole hairpin DNA, median over replicate spots","baseline: not given, higher = stronger binding",median fluorescence,8860 a.u.

# Some of these lines once more (sample 1):
SMILES,inhibition
Cc1cnc(C(=O)N[C@H]2CCCCC/C=C\[C@@H]3C[C@@]3(C(=O)NS(=O)(=O)C3CC3)NC(=O)[C@@H]3C[C@@H](Oc4nc5ccccc5c5ccccc45)CN3C2=O)cn1,6.3%
C/C(=C\C(=O)OCCCCCCCCC(=O)O)C[C@@H]1OC[C@H](C[C@@H]2O[C@H]2[C@@H](C)[C@H](C)O)[C@@H](O)[C@H]1O,6.29%
CN(C)CCCn1cc(C2=C(c3c[nH]c4ccccc34)C(=O)NC2=O)c2ccccc21,21.9%
CC(C)NCC(O)COc1ccc(COCCOC(C)C)cc1 (stereo not shown),2.59%
C/C(=N\NC(=O)[C@H]1C(=O)NC[C@@H]1c1ccccc1)c1cccc(Br)c1,7.54%
O=c1ccc2ccccc2o1,-0.33%
